# Measurements pooled from the literature.
# Each line is one published result; not all experiments were run side by side. Values joined by “and” are separate records of one study, mostly repeats; a detail may differ. Numbers after ± are the reported error.
# Read-out: viral replication
Compound,organism,action,method,cells,strain,time,EC50
CSCC[C@@H](C=O)NC(=O)[C@H](CC(C)C)NC(=O)[C@H](CC(C)C)NC(C)=O,human coronavirus 229E,,,,,,0.08 ± 0.01 µM
NCC12C3CCC4C3C3C(CCC31)C42,Influenza A virus,,,MDCK,A/PR/8/34 (H1N1),,9.1 µM and < 10 µM
COC(=O)C1NC(=O)C2NC(=O)C(NC(=O)C3NC(=O)C4NC(=O)C(NC(=O)C(Nc5c(OC)c(=O)c5=O)c5ccc(O)c(c5)Oc5cc4cc(O)c5C)C(O)c4ccc(cc4)Oc4cc3cc(c4O)Oc3ccc(cc3)C2O)c2ccc(O)c(c2)-c2c(O)cc(O)cc21 (stereo not drawn),Influenza A virus H3N2,,,,X-31,,3.2 ± 1.2 µM
CCC[C@H](NC(=O)[C@H](CC(C)C)NC(=O)OCc1ccccc1)C(=O)C(=O)NCc1ccccn1,human coronavirus 229E,,,,,,0.1 ± 0.01 µM
CN[C@H](CC(C)C)C(=O)N[C@H]1C(=O)N[C@@H](CC(N)=O)C(=O)N[C@H]2C(=O)N[C@H]3C(=O)N[C@H](C(=O)N[C@H](C(=O)O)c4cc(O)cc(O)c4-c4cc3ccc4O)[C@H](O)c3ccc(c(Cl)c3)Oc3cc2cc(c3O)Oc2ccc(cc2Cl)[C@H]1O,Influenza A virus H3N2,,,MDCK,A/HK/7/87,72 h,≥ 31 µM
CONC(=O)[C@H]1[C@@H](O)[C@@]2(O)c3c(OC)cc(OC)cc3O[C@@]2(c2ccc(OC)cc2)[C@@H]1c1ccccc1,human coronavirus 229E,,,MRC5,,,0.00288 µM
CN1CC23C4CCC5C4C4C2CCC4C53C1,Influenza A virus,inhibitor,,,H3N2,,> 100 µM
O=C1/C(=N\NC(=S)NN=Cc2cccs2)c2ccccc2N1Cc1ccccc1,Influenza A virus H3N2,,MTS,MDCK,,,> 4 µM
c1csc(CNC23C4CCC5C4C4C(CCC42)C53)c1,Influenza A virus,,,MDCK,A/PR/8/34 (H1N1),,8 µM
Cc1ccc(N2CC3CC(C2)N3C)cc1C(=O)NC1(c2ccc3c4c(cccc24)C(=O)N3C)CC1,human coronavirus 229E,,,Huh-7,,,2.66 µM
CN1CC23C4C=CC5C4C4C2C=CC4C53C1,Influenza A virus,,,MDCK,A/FM/1/47 (H1N1),,10 ± 3 µM
O=C(CCN(CCC(=O)N[C@@H](Cc1c[nH]c2ccccc12)C(=O)O)C(=O)CCN(CCC(=O)N(CCC(=O)N[C@@H](Cc1c[nH]c2ccccc12)C(=O)O)CCC(=O)N[C@@H](Cc1c[nH]c2ccccc12)C(=O)O)C(=O)CCC(CCC(=O)N(CCC(=O)N(CCC(=O)N[C@@H](Cc1c[nH]c2ccccc12)C(=O)O)CCC(=O)N[C@@H](Cc1c[nH]c2ccccc12)C(=O)O)CCC(=O)N(CCC(=O)N[C@@H](Cc1c[nH]c2ccccc12)C(=O)O)CCC(=O)N[C@@H](Cc1c[nH]c2ccccc12)C(=O)O)(CCC(=O)N(CCC(=O)N(CCC(=O)N[C@@H](Cc1c[nH]c2ccccc12)C(=O)O)CCC(=O)N[C@@H](Cc1c[nH]c2ccccc12)C(=O)O)CCC(=O)N(CCC(=O)N[C@@H](Cc1c[nH]c2ccccc12)C(=O)O)CCC(=O)N[C@@H](Cc1c[nH]c2ccccc12)C(=O)O)[N+](=O)[O-])N[C@@H](Cc1c[nH]c2ccccc12)C(=O)O,human coronavirus 229E,,,,,,8.9 µM

# For quick reference, copied from above:
Compound,organism,action,method,cells,strain,time,EC50
CN[C@H](CC(C)C)C(=O)N[C@H]1C(=O)N[C@@H](CC(N)=O)C(=O)N[C@H]2C(=O)N[C@H]3C(=O)N[C@H](C(=O)N[C@H](C(=O)O)c4cc(O)cc(O)c4-c4cc3ccc4O)[C@H](O)c3ccc(c(Cl)c3)Oc3cc2cc(c3O)Oc2ccc(cc2Cl)[C@H]1O,Influenza A virus H3N2,,,MDCK,A/HK/7/87,72 h,≥ 31 µM
